Measurements from different studies.
Numbered parts are unrelated; each lists some results of a single study.

Set 1 — method: RNA Bind-n-Seq; form: RNA; medium: in vitro; tested at: 200 nM; setting: whole 134-nt RNA, ends assumed; added: 150 mM LiCl; reference: input library; direction: higher = stronger binding; endpoint: log2 enrichment; library: 7-deaza-guanosine replaces G
Target: Fragile X messenger ribonucleoprotein 1, C-terminal low-complexity region (Fmr1, Mus musculus, UniProt P35922)
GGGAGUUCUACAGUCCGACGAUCAGUCCUGUGCUACACAUCGUAUGUACCGAAUCGGAAAAAGGAAAAAGGGAAAAAGGGGAAAGUAUUAUGUUACGCCGUUCGGAUCUGCACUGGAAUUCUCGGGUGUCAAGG: -0.847
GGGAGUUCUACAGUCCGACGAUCUCAAGUCCUGUGCUACACAUCGUAUGUACCGAAUCGGGGUUUGGUUUGGUUUGGAAAGUAUUAUGUUACGCCGUUCGGAUCUGCACUUCCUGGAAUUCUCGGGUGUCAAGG: -0.87
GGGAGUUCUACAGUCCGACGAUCCUGUGCUACACAUCGUAUGUACCGAAUCGGGGUUUGGGGAAAAAAAGGGGUUUUUUUGGGGAAAGUAUUAUGUUACGCCGUUCGGAUCUGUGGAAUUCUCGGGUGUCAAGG: -0.85
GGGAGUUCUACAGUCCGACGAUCUAACUUUAGAGGAGGAUCUGAUGGAUAUGGCAGUGCACGUGGAUUUGGGGAUGGCUAUAAUGGGUAUGGAGGAGGACCUGGAGGUGGCAAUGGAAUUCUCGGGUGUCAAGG: 0.413
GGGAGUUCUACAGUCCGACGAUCCAAGUCCUGUGCUACACAUCGUAUGUACCGAAUCGGGAAAGGGAAAAAGGGUGGGAAAGUAUUAUGUUACGCCGUUCGGAUCUGCACUUCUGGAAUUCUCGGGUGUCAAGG: -1.1
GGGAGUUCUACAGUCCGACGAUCCCUGUGCUACACAUCGUAUGUACCGAAUCGGGCCCCCCCGGCCCCCCCGGGCCCCCCCGGAAAGUAUUAUGUUACGCCGUUCGGAUCUGCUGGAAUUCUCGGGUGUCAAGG: 0.778
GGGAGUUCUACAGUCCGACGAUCUGUGCUACACAUCGUAUGUACCGAAUCGGGGAAAAAGGGGAAAAAAAGGGGAAAAAAAGGGGAAAGUAUUAUGUUACGCCGUUCGGAUCUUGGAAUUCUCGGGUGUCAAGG: 1.08
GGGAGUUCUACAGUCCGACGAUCUCCUCAAGUCCUGUGCUACACAUCGUAUGUACCGAAUCGGCCGGCCGGCCGGAAAGUAUUAUGUUACGCCGUUCGGAUCUGCACUUCCAGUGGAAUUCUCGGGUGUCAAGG: 1.57

Set 2 — method: protein binding microarray; form: double-stranded DNA, one strand shown; medium: in vitro; tested at: not given; reference: not given; direction: higher = stronger binding; endpoint: E-score
Target: Histone acetyltransferase KAT6A, winged helix 2, GST fusion (KAT6A, Homo sapiens, UniProt Q92794, residues 85-181)
Setting: 8-mer, flanks averaged, mean of 2 arrays, mostly near background
Target sequence (chain): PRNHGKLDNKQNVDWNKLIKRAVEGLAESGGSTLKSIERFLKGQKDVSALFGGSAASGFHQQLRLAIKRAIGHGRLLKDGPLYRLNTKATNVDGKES
ACCCATTG: 0.0533
AGGCAGCC: 0.0284
GTCTGAGA: -0.0566
GCCTGCCC: 0.112
CGAGAACC: -0.0601
GTCGTATA: 0.0596
ACCCGCCT: 0.0491
CTTATTCC: -0.111
CAGACATC: 0.0712
GGACCTGA: 0.0143
AGTTGCGG: 0.154

Set 3 — method: protein-binding microarray; form: double-stranded DNA, one strand shown; medium: in vitro; tested at: 2200 nM top; setting: 60-bp whole probe; added: salmon DNA 0.4 mg/ml; reference: random background probes; direction: higher = stronger binding; endpoint: fitted relative affinity; all sequences stand within: GCCTAGCAC … GTCTTGATTCGCTTGACGCTGCTG
Target: Interferon regulatory factor 7, full length, phosphomimetic (IRF7, Homo sapiens, UniProt Q92985, residues 1-503, S471D/S472D/S475D/S476D/S477D/S483D/S484D/S487D)
Chain of UniProt Q92985 (whole entry, unmodified, looked up): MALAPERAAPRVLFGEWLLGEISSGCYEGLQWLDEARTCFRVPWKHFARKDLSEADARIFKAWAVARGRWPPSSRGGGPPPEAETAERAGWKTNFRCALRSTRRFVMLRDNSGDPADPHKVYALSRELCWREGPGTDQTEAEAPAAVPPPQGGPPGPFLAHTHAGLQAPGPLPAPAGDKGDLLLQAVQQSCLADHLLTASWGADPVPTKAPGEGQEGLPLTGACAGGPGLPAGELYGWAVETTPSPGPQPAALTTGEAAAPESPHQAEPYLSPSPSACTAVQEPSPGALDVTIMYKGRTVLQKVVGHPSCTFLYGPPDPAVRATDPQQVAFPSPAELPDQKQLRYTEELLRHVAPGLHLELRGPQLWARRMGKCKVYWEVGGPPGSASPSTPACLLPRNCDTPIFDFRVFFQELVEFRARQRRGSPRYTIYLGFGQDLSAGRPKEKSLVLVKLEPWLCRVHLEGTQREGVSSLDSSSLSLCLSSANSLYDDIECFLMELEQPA
CTTTTATTTTTTTTATTTATGTGCTAG: 1.64 z-score
TTATTTTTTTTATTTATAAAGTGCTAG: 0.908 z-score
GACGATTTGAGTTTCGAGACGTGCTAG: 2.31 z-score
TTAGGTTTCCTTATGCTTTAGTGCTAG: 1.69 z-score
TTAGGACTGAGACTGGATTAGTGCTAG: -0.782 z-score
TGAGGACTGGACTTTCGGTTAGTGCTA: 4.71 z-score
TTCGAACTGAGACTGGATTAGTGCTAG: -0.222 z-score
GACGGGTTCGGACTGGGGACGTGCTAG: -0.173 z-score
TCACGTGACCCTCTCAAACTGTGCTAG: 0.902 z-score
CTAGGTATCGGGTATCGGTTAGTGCTA: 0.538 z-score
TTAGGACTGGGTATGGGTTAGTGCTAG: -0.618 z-score
TCAGCTTTCTTTATGTAACTGTGCTAG: 1.64 z-score
TTAGTACTGGACTATCGGTTAGTGCTA: 0.225 z-score
TTTAGCAGACTGAGAGGAACGTGCTAG: -0.673 z-score
AACGGTATCGGTCTCGGGACGTGCTAG: 0.321 z-score
TTAGATATCAGTTTCGATCAGTGCTAG: 3.38 z-score

Further values, each from its own experiment
PhoQ, residues 284 288 289 292 302 303 SLANIV — fold induction (PhoP, residues 12 14 15 18 19 IQFRS (Escherichia coli, UniProt P23836); Sort-seq, item: YFP reporter; E. coli; PhoQ-PhoP variant library, added: 10 µM Mg2+; reference: high Mg2+ state, higher = stronger signaling): 16.2

Excerpt of the above (set 3):
TGAGGACTGGACTTTCGGTTAGTGCTA: 4.71 z-score
TCACGTGACCCTCTCAAACTGTGCTAG: 0.902 z-score
TTTAGCAGACTGAGAGGAACGTGCTAG: -0.673 z-score
TTAGGACTGGGTATGGGTTAGTGCTAG: -0.618 z-score
AACGGTATCGGTCTCGGGACGTGCTAG: 0.321 z-score
